# Experimental data gathered from unrelated publications.
# A part holds a random share of what one study measured. Substitutions count along the parent as printed.

# Series 1
# Target: Sal-like protein 4, full length isoform B (SALL4, Homo sapiens, UniProt Q9UJQ4-2, residues 1-616)
# Method: universal PBM
# Form: double-stranded DNA, one strand shown
# Medium: in vitro
# Tested at: not given
# Notes: 8-mer, flanks averaged, mean of replicates
# Direction: higher = stronger binding
Sequence,E-score
AACTTTCC,-0.0563
AGAAACAG,0.022
ATCCATCG,-0.0128
AGCTGGCG,-0.342

# Series 2
# Target: Prothrombin, mature alpha-thrombin (F2, Homo sapiens, UniProt P00734)
# Method: aptamer microarray, sandwich
# Form: DNA with 2'F-ANA
# Medium: in vitro
# Tested at: 200 nM
# Notes: whole 15-mer aptamer, many near background
# Together with: Cy3 exosite-II aptamer, 400 nM
# Direction: higher = stronger binding
# Sequence: GGTTGGTGTGGTTGG
Modification,mean fluorescence intensity [a.u.]
2'F-ANA at 1 3 5 7 9 12 13,76.4
2'F-ANA at 4 6 7 8 9 11 12 14,94.3
2'F-ANA at 2 3 5 6 10 11,48.7
2'F-ANA at 2 3 4 7 8 10 13,250
2'F-ANA at 1 2 3 4 6 8 9 10 11 12 14 15,53.8

# Single results of other studies
# P1: BRCA2 docking peptide (human); PSIKRNLLNEFDR; partner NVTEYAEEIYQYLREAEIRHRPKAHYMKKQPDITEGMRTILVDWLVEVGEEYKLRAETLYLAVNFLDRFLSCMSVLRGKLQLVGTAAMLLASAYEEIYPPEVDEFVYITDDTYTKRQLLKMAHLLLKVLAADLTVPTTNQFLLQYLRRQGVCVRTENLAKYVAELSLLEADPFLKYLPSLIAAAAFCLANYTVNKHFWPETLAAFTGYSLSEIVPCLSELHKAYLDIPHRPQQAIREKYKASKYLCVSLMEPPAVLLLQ
# P2: E2F1 docking peptide (human); PPVKRRLDFETDH; partner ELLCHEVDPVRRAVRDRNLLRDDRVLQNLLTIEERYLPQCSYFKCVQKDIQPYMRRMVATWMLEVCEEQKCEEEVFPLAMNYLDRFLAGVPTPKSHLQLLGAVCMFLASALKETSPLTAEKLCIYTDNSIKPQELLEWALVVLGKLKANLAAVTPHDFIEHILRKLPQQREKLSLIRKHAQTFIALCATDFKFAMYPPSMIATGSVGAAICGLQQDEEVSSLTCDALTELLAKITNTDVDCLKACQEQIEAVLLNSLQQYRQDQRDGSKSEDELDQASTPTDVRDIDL
# P3: SLBP docking peptide (human); ARYKRKLLINDFG; partner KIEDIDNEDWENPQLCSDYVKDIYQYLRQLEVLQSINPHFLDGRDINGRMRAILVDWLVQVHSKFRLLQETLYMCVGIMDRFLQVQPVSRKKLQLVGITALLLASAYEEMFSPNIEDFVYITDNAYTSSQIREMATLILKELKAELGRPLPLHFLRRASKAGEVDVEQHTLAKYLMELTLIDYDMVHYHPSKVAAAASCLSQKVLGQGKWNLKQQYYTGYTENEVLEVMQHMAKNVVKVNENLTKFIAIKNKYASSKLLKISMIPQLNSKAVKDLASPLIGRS
Substance,target,assay,system,setting,how to read,quantity,result
P1 I3H,"CCNA1, cyclin fold, Cln2 fusion (human)","yeast growth competition, sequencing",yeast,weak parent motif,"baseline: not given, higher = stronger binding",normalised enrichment score,0.461
"PhoQ, residues 284 288 289 292 302 303 ALASRC","PhoP, residues 12 14 15 18 19 TTLRV (Escherichia coli, UniProt P23836)","Sort-seq, measured: YFP reporter",E. coli,"PhoQ-PhoP variant library, together with: 10 µM Mg2+","baseline: high Mg2+ state, higher = stronger signaling",fold induction,4.49
P2 F9P,"CCND2, cyclin fold, Cln2 fusion (human)","yeast growth competition, sequencing",yeast,strong parent motif,"baseline: not given, higher = stronger binding",normalised enrichment score,-0.0775
P3 L7I,"CCNB2, cyclin fold, Cln2 fusion (human)","yeast growth competition, sequencing",yeast,weak parent motif,"baseline: not given, higher = stronger binding",normalised enrichment score,0.359

# Some of these lines once more (single results of other studies):
Substance,target,assay,system,setting,how to read,quantity,result
"PhoQ, residues 284 288 289 292 302 303 ALASRC","PhoP, residues 12 14 15 18 19 TTLRV (Escherichia coli, UniProt P23836)","Sort-seq, measured: YFP reporter",E. coli,"PhoQ-PhoP variant library, together with: 10 µM Mg2+","baseline: high Mg2+ state, higher = stronger signaling",fold induction,4.49
